Results from different studies.
Each numbered part is a random draw from the data of one study; scales do not carry over between parts. Changes are numbered by the printed parent chain.

Set 1
Substance: PhoQ, residues 284 288 289 292 302 303 ALAMYF
Method: Sort-seq
Item: YFP reporter
Medium: E. coli
Notes: PhoQ-PhoP variant library
Added: 10 µM Mg2+
Baseline: high Mg2+ state
Direction: higher = stronger signaling
Quantity: fold induction
target = PhoP, residues 12 14 15 18 19 SHWTV (Escherichia coli, UniProt P23836); value = 3.83
target = PhoP, residues 12 14 15 18 19 QYCSL (Escherichia coli, UniProt P23836); value = 3.65
target = PhoP, residues 12 14 15 18 19 STHWV (Escherichia coli, UniProt P23836); value = 11

Set 2
Target: ABI1, truncated, D143A, DHFR fusion (Arabidopsis thaliana)
Method: DHFR PCA, deep sequencing
Medium: yeast
Notes: methotrexate growth selection, single substitutions
Added: (+)-ABA 2500 µM
Baseline: wild-type fitted maximum
Direction: higher = stronger binding
Quantity: relative binding score
Starting sequence: PYL1, truncated, DHFR fusion (Arabidopsis thaliana); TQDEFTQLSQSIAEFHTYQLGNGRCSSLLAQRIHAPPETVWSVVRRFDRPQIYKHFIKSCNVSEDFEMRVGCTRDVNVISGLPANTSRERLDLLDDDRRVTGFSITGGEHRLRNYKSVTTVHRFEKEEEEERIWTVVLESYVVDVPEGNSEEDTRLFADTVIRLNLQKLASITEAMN
Substitution = Y53C; value = 77.6%
Substitution = V142S; value = 96.7%
Substitution = L8V; value = 97%
Substitution = C25M; value = 94.2%
Substitution = A158T; value = 98.7%
Substitution = F157R; value = 3.14%
Substitution = N177H; value = 106%
Substitution = S104Y; value = 77.5%
Substitution = D48K; value = 77.5%
Substitution = L91E; value = 5.94%
Substitution = E109H; value = 100%
Substitution = D92G; value = 80.5%
Substitution = P50L; value = -5.62%
Substitution = F103L; value = 71.1%
Substitution = A30S; value = 105%

Set 3
Target: RING finger protein unkempt homolog, zinc fingers 1-6, GST-SBP tag (UNK, Homo sapiens, UniProt Q9C0B0, residues 30-357)
Method: RNA Bind-n-Seq
Form: RNA
Medium: in vitro
Concentration: not given
Notes: RNA with constant flanks, human-mouse chimeric sites, ends assumed
Baseline: input RNA pool
Direction: higher = stronger binding
Quantity: bound/input enrichment
Construct (chain): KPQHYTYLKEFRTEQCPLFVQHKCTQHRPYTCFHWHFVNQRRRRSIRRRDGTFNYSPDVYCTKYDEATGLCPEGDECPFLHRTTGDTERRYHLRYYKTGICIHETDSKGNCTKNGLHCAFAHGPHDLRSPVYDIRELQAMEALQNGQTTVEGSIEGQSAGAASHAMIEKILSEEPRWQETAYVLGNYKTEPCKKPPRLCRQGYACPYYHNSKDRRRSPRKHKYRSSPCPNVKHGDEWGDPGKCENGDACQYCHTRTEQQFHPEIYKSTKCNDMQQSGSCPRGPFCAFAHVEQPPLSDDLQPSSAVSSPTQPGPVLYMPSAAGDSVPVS
Strand = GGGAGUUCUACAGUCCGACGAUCUCUGGUCACACUCGUGUGUAUGGUGUUUGCUUUGUGGACACUUCACUGGGCAAGUUUUUCAUCGGCCAGUUUUCAGAUGACCGCCACUGUUCCAGAUUUAGGACGCUAGUGGCUCACUAUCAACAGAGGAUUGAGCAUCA; value = 0.209 ratio
Strand = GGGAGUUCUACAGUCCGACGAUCCCACCAGAUUCCAGCCAACAUGACCCUUGCUGCCUACAAAGAGAAGAUGAAGGAGCUCCCGCUGGUGUCCUUGUUCUGCUCCUGCUUCCUGGCCGAUCCCCUGAAUAAGUCGUCCUACAACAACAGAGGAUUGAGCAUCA; value = 0.323 ratio
Strand = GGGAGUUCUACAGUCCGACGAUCAACAUUUUGUCAAAUUGUAUUUCCCGUGUGAAACAAGUGAACACUCUGAUACACUUCAUCUGCUUGUACAUCUGUAUGAUAGAGAAAUGUAAAUAUGUUAAUCCAAGCAAUGUGUCACUUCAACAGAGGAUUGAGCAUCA; value = 0.182 ratio
Strand = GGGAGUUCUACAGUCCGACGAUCCACUCGAGGGCUGCCGUUUUCUGUUUCUCCCUGGGCUGCGGAAAGCCAGAAGAUUUUAUCUAGCUUAAACCAGGCUGCUGGUGUUCCCUCUUUUUUUCCACGAGGGUGUUUUUGGCUGCACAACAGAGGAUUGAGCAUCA; value = 0.308 ratio
Strand = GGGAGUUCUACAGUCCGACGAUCUAAGUUAUUUUGUACAGCUUUGUAAAUUCUUAACAUUAAUUUGUAAACAUGUUUAUUUUGUUUGGGUAAUUUGGUUCAUUAAGUACAUAGCUAAGGUAAUGAACAUCGUAAUUAUAGAUUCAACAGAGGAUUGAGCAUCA; value = 0.546 ratio
Strand = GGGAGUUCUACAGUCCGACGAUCUGUAGUUGAUCCCCUGCUCAUUUUUCUCUUUUCUUUCUUUCCUUUAGGAAAAGCCUAAAGAUUAGGUUGUAAGAAAAACAGAAGCCAUGUUUCGAAGACCUGUGUUAAUUACAGGUAGUCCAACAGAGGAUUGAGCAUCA; value = 0.0658 ratio
Strand = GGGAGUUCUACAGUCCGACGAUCUCGGAUGCUGUGCUGGGUCACUUUUCAUAUCCUGAUCCUUCACAGUGGACAGAUGAAGAACUGGGAAUCCCUCCUGAUGACGAGGACUGAAGGUGUAAACUCUCUGGACGAGUAGGAGCACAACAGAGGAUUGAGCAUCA; value = 0.477 ratio
Strand = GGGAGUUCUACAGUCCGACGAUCUUACCCGAGAACGAGGAUGAAUUGGAGAGCACCAACAGGCGCUACACCAAGAGGGACUGCAGCACUUUCCUCAGAACUAGUGAGACGGGCAUCGUGGAUCAGGUUAUGGUCACUCUCAACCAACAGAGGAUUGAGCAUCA; value = 0.2 ratio
Strand = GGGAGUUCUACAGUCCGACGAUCUACUACUAUGAUGGUGAUAUUGGCAAUUAUUAUUAUGGCCAGGGUCAUCCCAUGAAGCCUCAUAGAAUCCGGAUGACCCAUAACUUGCUGUUAAAUUAUGGUUUAUACCGAAAAAUGGAACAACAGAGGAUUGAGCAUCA; value = 0.156 ratio
Strand = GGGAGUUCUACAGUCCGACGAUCCGCUUGGAUGAGGCGGGUGUCACAGAUGAAGUGCUGGAUUCUGCCAUGCAAGCCUUCCUUCUGGAGGUCAUUGUUAAACAUGGGGAGCCGGCACCUUAUUUAUGUAAUAAAGAUCCUUUUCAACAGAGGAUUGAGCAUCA; value = 0.078 ratio
Strand = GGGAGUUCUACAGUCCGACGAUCUCUGGUCACACUCGUGUGUAUGGUGUUUGCUUUGUGGACACUUCACUGGGCAAGUUUUUCAUCGGCCAGUUUUCGGAUGAUCGCCAUUGUUCGAGAUUUAGGACGCUAGUGGCUCACUAUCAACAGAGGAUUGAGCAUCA; value = 0.231 ratio

Set 4
Target: CCNF, cyclin fold, Cln2 fusion (human)
Method: yeast growth competition, sequencing
Medium: yeast
Notes: strong parent motif
Baseline: not given
Direction: higher = stronger binding
Quantity: normalised enrichment score
Starting sequence: INSM1 docking peptide (human); PKAIRKLHFEDEV
Substitution = K2A; value = 7.3
Substitution = R5A; value = 0.48
Substitution = F9N; value = -0.0325
Substitution = K6S; value = 5.77
Substitution = E10G; value = 7.94
Substitution = I4S; value = 7.51
Substitution = K6T; value = 5.76
Substitution = R5C; value = 1.91
Substitution = E12Q; value = 7.51
Substitution = H8T; value = 6.93
Substitution = E10H; value = 7.08
Substitution = I4H; value = 7.28
Substitution = K6L; value = 3.37
Substitution = K6P; value = 2.7
Substitution = H8W; value = 7.31
Substitution = K2P; value = 6.77
Substitution = L7N; value = -0.253
Substitution = I4N; value = 7.71
